# Experimental data pooled from the literature.
# Each line is one published result; not all experiments were run side by side. Several values in a cell are separate wells, animals, samples, runs or records. Numbers after ± are the reported error.
SMILES,tested on,assay,system,setting,scale,quantity,value
Cc1ccc(OCCN(C)C)cc1C(=O)N[C@H](C)c1cc(-c2cccnc2N2CCCC2)nc2ccccc12,Vero E6,,,31.25 µM,,viability,71.9% and 99.1%
O=C(O)/C=C\c1ccc2occc2c1O[C@@H]1O[C@H](CO)[C@@H](O)[C@H](O)[C@H]1O,,post-procedure stability,rat plasma,"1000 ng/mL, 1 h, room temperature",,accuracy,84.8%
CC1(C)C(=O)N(c2ccc(C#N)c(C(F)(F)F)c2)C(=S)N1c1ccc(C(N)=O)c(F)c1,,,"male human, plasma","oral, 80 mg, single dose, fasted",,MRT,15.8 days
C[C@H](NCc1ccc(-c2ccc(C(F)(F)F)cc2)cc1)C(N)=O,,general toxicity,Sprague-Dawley rat,"oral, multiple doses, once daily",,NOAEL,> 200 mg/kg/day
CCCC[C@H]1C(=O)N(C)[C@@H](CCCC)C(=O)N[C@@H](CCCNC(=O)CN2CCN(CC(=O)O)CCN(CC(=O)O)CCN(CC(=O)O)CC2)C(=O)N[C@H](C(=O)NCC(N)=O)CSCC(=O)N[C@@H](Cc2ccc(O)cc2)C(=O)N(C)[C@@H](C)C(=O)N[C@@H](CC(N)=O)C(=O)N2CCC[C@H]2C(=O)N[C@@H](Cc2c[nH]cn2)C(=O)N[C@@H](CC(C)C)C(=O)N(C)CC(=O)N[C@@H](Cc2c[nH]c3ccccc23)C(=O)N[C@@H](CO)C(=O)N[C@@H](Cc2c[nH]c3ccccc23)C(=O)N1C [gallium-68 labelled],,,"NOD/SCID mice, CHO-hPD-L1 xenograft, tumour over liver","iv, dose not given, 60 min",reference: tumour over liver,tissue-to-tissue ratio,1.6 ± 0.18
Cc1ccc(N2CCN(C)[C@H](C)C2)cc1C(=O)N[C@H](C)c1cc(-c2cnn(C)c2)nc2ccccc12,African green monkey cells,,,15.62 µM,,viability,99.8%
CC(C)=CCC/C(C)=C\CCn1cc(CC(C)(P(=O)(O)O)P(=O)(O)O)nn1,,,"mouse CD-1, bile","intravenous, 0.3 mg/kg, 2 h",,concentration,5590 ± 1930 ng/mL
O=C1NC2(CC2)COc2ncc(F)cc2[C@H]2COCCN2c2ccn3ncc1c3n2,,,"Sprague-Dawley rat, female, plasma","oral, 20 mg/kg/day, end of treatment, 4-week repeated-dose toxicity",,prothrombin time,8.3 ± 0.2 s
CC[C@H](C)[C@H](NC(=O)[C@H](CCCCN)NC(=O)CNC(=O)[C@H](CC(C)C)NC(=O)[C@H](Cc1ccccc1)NC(=O)[C@H](CCCCN)NC(=O)[C@H](CO)NC(=O)[C@H](Cc1ccccc1)NC(=O)[C@H](Cc1c[nH]c2ccccc12)NC(=O)[C@H](CCC(N)=O)NC(=O)[C@@H](NC(=O)[C@H](Cc1ccccc1)NC(=O)CCCCCNC(=O)CN1CCN(CC(=O)O)CCN(CC(=O)O)CCN(CC(=O)O)CC1)C(C)C)C(=O)N[C@@H](CCC(=O)O)C(=O)N1CCC[C@H]1C(=O)N[C@@H](CC(=O)O)C(=O)N[C@H](C(=O)N[C@@H](CO)C(=O)N[C@@H](CCC(N)=O)C(=O)N[C@H](C(=O)N[C@@H](CCC(N)=O)C(=O)N[C@@H](CC(=O)O)C(=O)N1CCC[C@H]1C(=O)N[C@@H](CC(N)=O)C(=O)N[C@@H](CC(=O)O)C(=O)N[C@@H](CCC(N)=O)C(=O)N[C@@H](Cc1ccc(O)cc1)C(=O)N[C@@H](CCC(=O)O)C(=O)N1CCC[C@H]1C(=O)N[C@@H](Cc1ccccc1)C(=O)O)C(C)C)C(C)C [copper-64 labelled],,,"C57BL/6 mice, male, naive, white fat",24 h,,tissue uptake,0.33 ± 0.1 %ID/g
CC(C)C[C@H](NC(=O)[C@H](Cc1ccc(O)cc1)NC(=O)[C@H](C)NC(=O)[C@H](CC(N)=O)NC(=O)[C@H](CC(C)C)NC(=O)[C@H](C)NC(=O)[C@@H](NC(=O)[C@H](CCCCN)NC(=O)CNC(=O)[C@@H](NC(=O)[C@H](CC(N)=O)NC(=O)[C@H](CCCCN)NC(=O)CNC(=O)[C@@H](NC(=O)[C@H](Cc1c[nH]cn1)NC(=O)[C@H](C)NC(=O)[C@H](C)NC(=O)[C@H](CCCCN)NC(=O)[C@H](CCCCN)NC(=O)[C@H](Cc1ccccc1)NC(=O)[C@H](Cc1c[nH]c2ccccc12)NC(=O)[C@H](CCCCN)NC(=O)[C@H](CCCCN)NC(=O)[C@H](CS)NC(=O)CN)C(C)C)C(C)C)C(C)C)C(N)=O,,,"zebrafish embryos 28 hpf, E3 medium",1 h,,acute toxic concentration,5 µM
CC(C)[C@H](NC(=O)[C@@H](NC(=O)[C@H](CCCNC(=N)N)NC(=O)[C@H](CCCNC(=N)N)NC(=O)[C@H](CCCNC(=N)N)NC(=O)[C@H](CCC(N)=O)NC(=O)[C@H](CCCNC(=N)N)NC(=O)[C@H](CCCNC(=N)N)NC(=O)[C@H](CCCCN)NC(=O)[C@H](CCCCN)NC(=O)[C@H](CCCNC(=N)N)NC(=O)CN)[C@@H](C)O)C(=O)N[C@H](C(=O)N[C@@H](CO)C(=O)N1CCC[C@H]1C(=O)O)[C@@H](C)O,,,"ICR mouse, female, left kidney","intranasal, 10 mg/kg daily, 4 weeks",,kidney weight,0.226 ± 0.011 g
COc1cnc2cccc(N3CCc4c(cc(Cn5ccnc5)cc4-c4cn(C)nc4C(F)(F)F)C3=O)c2c1,,,"BALB/c nude mice, MV4-11 xenograft","intraperitoneal, 50 mg/kg, day 14",,body weight,24.9 g and 21.5 g and 20.7 g and 23 g
N#[11C]c1ccc(-c2csc(NN=C3CCCC3)n2)cc1,,,"C57BL/6 mice, male, bone","intravenous, 3 MBq, 5 min",,radioactivity uptake,1.62 ± 0.26 %ID/g

# Repeated from above:
SMILES,tested on,assay,system,setting,scale,quantity,value
COc1cnc2cccc(N3CCc4c(cc(Cn5ccnc5)cc4-c4cn(C)nc4C(F)(F)F)C3=O)c2c1,,,"BALB/c nude mice, MV4-11 xenograft","intraperitoneal, 50 mg/kg, day 14",,body weight,24.9 g and 21.5 g and 20.7 g and 23 g
N#[11C]c1ccc(-c2csc(NN=C3CCCC3)n2)cc1,,,"C57BL/6 mice, male, bone","intravenous, 3 MBq, 5 min",,radioactivity uptake,1.62 ± 0.26 %ID/g
